Measurements pooled from the literature.
Compare with care: the assays were run in different laboratories.
rep main protease: Replicase polyprotein 1ab, main protease (rep, Severe acute respiratory syndrome coronavirus 2, UniProt P0DTD1)
plsY3: Glycerol-3-phosphate acyltransferase 3 (plsY3, Bacillus anthracis, UniProt Q81Y92)
Sequence of UniProt Q81Y92 (whole entry, looked up): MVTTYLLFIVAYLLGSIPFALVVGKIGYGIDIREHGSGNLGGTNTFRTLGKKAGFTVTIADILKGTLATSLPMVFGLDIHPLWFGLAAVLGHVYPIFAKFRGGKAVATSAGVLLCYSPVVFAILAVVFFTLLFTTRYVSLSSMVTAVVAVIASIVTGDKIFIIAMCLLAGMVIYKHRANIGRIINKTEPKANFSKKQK
RBD, SARS-CoV-2, spike, with ACE2: Angiotensin-converting enzyme 2, with SARS-CoV-2 spike RBD (ACE2, Homo sapiens, UniProt Q9BYF1)
Sequence of UniProt Q9BYF1 (whole entry, looked up): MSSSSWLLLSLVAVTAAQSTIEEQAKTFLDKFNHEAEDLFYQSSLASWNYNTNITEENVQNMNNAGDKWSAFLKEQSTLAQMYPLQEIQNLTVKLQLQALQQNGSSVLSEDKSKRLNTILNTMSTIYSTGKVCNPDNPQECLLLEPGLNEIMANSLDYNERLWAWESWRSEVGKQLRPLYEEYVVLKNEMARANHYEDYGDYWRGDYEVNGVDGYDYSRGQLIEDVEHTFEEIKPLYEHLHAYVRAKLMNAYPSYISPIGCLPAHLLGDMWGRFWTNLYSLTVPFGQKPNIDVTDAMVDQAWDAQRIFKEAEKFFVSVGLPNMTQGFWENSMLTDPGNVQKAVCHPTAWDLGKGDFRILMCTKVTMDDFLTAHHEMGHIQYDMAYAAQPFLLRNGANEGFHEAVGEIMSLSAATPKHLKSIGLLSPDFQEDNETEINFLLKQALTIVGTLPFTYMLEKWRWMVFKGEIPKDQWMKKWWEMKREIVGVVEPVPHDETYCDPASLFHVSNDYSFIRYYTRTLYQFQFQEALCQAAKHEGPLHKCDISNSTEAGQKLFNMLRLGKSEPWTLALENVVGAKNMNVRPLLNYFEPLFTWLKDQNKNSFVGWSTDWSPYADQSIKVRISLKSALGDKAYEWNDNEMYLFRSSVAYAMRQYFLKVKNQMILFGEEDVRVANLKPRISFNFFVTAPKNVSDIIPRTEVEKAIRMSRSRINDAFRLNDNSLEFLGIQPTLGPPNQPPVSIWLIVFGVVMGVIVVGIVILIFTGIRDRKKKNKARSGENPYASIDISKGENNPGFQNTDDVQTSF
Spike glycoprotein: Spike glycoprotein (Severe acute respiratory syndrome coronavirus 2, UniProt P0DTC2)
Sequence of UniProt Q5XXP4 (whole entry, looked up): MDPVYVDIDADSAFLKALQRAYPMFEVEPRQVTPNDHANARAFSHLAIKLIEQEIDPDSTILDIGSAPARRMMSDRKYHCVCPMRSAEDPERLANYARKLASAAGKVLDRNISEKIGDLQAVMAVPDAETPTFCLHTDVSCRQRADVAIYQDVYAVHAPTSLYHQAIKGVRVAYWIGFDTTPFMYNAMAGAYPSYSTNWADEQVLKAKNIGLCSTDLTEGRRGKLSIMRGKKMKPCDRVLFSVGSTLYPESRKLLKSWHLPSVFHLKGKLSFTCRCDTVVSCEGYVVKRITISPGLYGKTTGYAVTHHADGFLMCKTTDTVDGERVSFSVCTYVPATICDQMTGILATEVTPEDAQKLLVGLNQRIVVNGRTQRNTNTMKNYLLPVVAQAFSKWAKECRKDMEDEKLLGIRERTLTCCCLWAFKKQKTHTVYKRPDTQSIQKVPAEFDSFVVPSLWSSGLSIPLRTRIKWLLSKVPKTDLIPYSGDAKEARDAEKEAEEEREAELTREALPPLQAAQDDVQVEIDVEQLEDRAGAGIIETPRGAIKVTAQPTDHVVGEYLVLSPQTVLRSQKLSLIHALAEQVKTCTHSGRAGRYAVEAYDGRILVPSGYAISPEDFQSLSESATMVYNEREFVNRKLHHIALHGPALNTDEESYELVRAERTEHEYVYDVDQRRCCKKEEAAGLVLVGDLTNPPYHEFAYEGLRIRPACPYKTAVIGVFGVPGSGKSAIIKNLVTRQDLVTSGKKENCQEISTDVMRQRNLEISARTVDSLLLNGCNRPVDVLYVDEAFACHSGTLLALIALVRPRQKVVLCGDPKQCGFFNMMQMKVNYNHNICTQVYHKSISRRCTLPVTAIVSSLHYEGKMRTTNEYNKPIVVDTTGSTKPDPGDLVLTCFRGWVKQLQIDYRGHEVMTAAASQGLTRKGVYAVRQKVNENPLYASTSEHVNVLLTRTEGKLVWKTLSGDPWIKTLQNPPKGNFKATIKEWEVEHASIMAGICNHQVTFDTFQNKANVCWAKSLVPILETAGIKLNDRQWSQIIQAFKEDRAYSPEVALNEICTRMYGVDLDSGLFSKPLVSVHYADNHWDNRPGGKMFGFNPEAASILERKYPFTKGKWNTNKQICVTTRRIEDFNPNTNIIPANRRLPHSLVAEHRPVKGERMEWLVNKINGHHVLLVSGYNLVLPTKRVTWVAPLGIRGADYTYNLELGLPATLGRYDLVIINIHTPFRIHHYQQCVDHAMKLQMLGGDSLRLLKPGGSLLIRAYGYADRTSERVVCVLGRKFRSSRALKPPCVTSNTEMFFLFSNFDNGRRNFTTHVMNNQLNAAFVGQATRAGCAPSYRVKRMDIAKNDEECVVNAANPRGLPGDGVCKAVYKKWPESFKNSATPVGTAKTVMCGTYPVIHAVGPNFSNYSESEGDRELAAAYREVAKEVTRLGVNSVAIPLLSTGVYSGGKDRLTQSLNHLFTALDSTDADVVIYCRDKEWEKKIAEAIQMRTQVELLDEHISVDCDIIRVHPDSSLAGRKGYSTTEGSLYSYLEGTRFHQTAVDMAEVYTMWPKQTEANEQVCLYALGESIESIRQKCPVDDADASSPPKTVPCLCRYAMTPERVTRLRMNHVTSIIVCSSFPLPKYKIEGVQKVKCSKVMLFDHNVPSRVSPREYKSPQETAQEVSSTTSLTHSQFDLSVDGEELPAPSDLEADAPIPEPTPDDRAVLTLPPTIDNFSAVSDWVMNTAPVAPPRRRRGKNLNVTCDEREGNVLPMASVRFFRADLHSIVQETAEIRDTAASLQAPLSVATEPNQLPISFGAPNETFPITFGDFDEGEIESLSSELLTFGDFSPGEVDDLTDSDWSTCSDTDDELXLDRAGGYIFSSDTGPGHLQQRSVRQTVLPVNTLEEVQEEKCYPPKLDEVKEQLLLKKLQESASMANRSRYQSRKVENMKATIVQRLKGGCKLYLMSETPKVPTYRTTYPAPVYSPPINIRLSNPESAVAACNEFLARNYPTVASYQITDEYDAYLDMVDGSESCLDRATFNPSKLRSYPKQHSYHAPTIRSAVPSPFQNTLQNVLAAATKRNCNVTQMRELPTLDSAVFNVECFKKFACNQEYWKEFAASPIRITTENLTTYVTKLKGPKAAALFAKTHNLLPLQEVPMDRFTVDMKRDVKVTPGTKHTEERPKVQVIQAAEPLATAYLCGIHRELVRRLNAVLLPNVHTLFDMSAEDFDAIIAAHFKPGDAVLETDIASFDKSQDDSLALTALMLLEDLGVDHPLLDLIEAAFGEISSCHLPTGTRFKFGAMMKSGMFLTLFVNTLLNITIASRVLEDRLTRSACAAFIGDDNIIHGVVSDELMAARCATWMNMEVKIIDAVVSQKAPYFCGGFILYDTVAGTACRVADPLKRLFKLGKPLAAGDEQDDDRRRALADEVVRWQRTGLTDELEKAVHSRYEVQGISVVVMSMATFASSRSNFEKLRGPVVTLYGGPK

Molecule	target or system	assay	test system	setting	scale	measurement	result
O=C(Nc1cccnn1)N1CCC(=Cc2cccc(Oc3ccc(C(F)(F)F)cn3)c2)CC1	strychnine-sensitive glycine receptor, rat	binding	–	10 µM, together with: [3H]strychnine	–	inhibition	12%
Cc1nc(C(=O)N2CC[C@@H]([C@@H]3CCCN3C(=O)c3cc(C)c4n[nH]nc4c3)C2)cc(=O)[nH]1	rep main protease	enzyme activity, inhibitor	–	5 µM	–	inhibition	8.1%
Cl.N[C@@H](Cc1ccccc1)C(=O)N1C/C(=C/c2ccc(Cl)c(Cl)c2)C(=O)/C(=C\c2ccc(Cl)c(Cl)c2)C1	rep main protease	reporter gene (Gaussia luciferase), inhibitor	–	20 µM	–	inhibition	-5.63%
CN[C@]1(c2ccccc2Cl)CCCCC1=O	muscarinic acetylcholine receptor	radioligand binding, antagonist, radioligand displacement	–	30 µM	–	inhibition	24%
C=CCCCCCCCCC(=O)C(F)(F)P(=O)(O)O	plsY3	inhibitor	–	200 µM	–	inhibition	29%
Z-FA-FMK	rep main protease	enzyme activity, mKate2 fluorescence reporter	SARS-CoV-2	20 µM	–	inhibition	9.73%
O=C(c1cc2ccc(O)cc2[nH]1)N1CC2(C1)CN(C(=O)[C@H]1CCc3n[nH]nc3C1)CCO2	rep main protease	enzyme activity, inhibitor	–	5 µM, run 1	–	inhibition	9.8%
CC[C@H](C)[C@H](NC(=O)[C@H](CC(C)C)NC(=O)[C@H](Cc1c[nH]c2ccccc12)NC(=O)[C@H](CCC(N)=O)NC(=O)[C@@H](NC(=O)[C@H](Cc1ccccc1)NC(=O)[C@H](C)NC(=O)[C@H](CCCCNC(=O)COCCOCCNC(=O)COCCOCCNC(=O)CC[C@H](NC(=O)CCCCCCCCCCCCCCCCCCC(=O)O)C(=O)O)NC(=O)[C@H](CCC(N)=O)NC(=O)[C@H](C)NC(=O)[C@@H](NC(=O)[C@H](CCCCN)NC(=O)[C@H](CC(=O)O)NC(=O)[C@H](CC(C)C)NC(=O)C(C)(C)NC(=O)[C@@H](NC(=O)[C@H](CO)NC(=O)[C@H](Cc1ccc(O)cc1)NC(=O)[C@H](CC(=O)O)NC(=O)[C@H](CO)NC(=O)[C@@H](NC(=O)[C@H](Cc1ccccc1)NC(=O)[C@@H](NC(=O)CNC(=O)[C@H](CCC(=O)O)NC(=O)C(C)(C)NC(=O)[C@@H](N)Cc1ccc(O)cc1)[C@@H](C)O)[C@@H](C)O)[C@@H](C)CC)[C@@H](C)CC)C(C)C)C(=O)N[C@@H](C)C(=O)NCC(=O)NCC(=O)N1CCC[C@H]1C(=O)N[C@@H](CO)C(=O)N[C@@H](CO)C(=O)NCC(=O)N[C@@H](C)C(=O)N1CCC[C@H]1C(=O)N1CCC[C@H]1C(=O)N1CCC[C@H]1C(=O)N[C@@H](CO)C(N)=O	–	–	healthy human	2.5 mg, single ascending dose	–	severe hypoglycaemia	0%
CC(=O)NCCc1c(C(O)c2ccc(Cl)cc2)[nH]c2ccccc12 (centres unmarked)	RBD, SARS-CoV-2, spike, with ACE2	RBD binding, TR-FRET	–	100 µM, together with: RBD-d2 5 nM	–	inhibition	20 to 30%
COc1cc(N2CCN(C)CC2)ccc1Nc1ncc2c(n1)N(C)c1ccccc1C(=O)N2	rep main protease	viral replication, mKate2 reporter	SARS-CoV-2	20 µM	–	inhibition	-0.288%
CCCCCC/C=C\CCCCCCCCCC(=O)CP(=O)(O)O	plsY3	inhibitor	–	200 µM	–	inhibition	40%
O=C(NC[C@@H]1CC2(CCC2)CN1C(=O)c1ccc(F)c(O)c1)c1cncc2ccccc12	rep main protease	enzyme activity, inhibitor	–	5 µM, mean of runs	–	inhibition	26.9%
COc1ccc2[nH]c(C(O)c3ccc(Cl)cc3)c(CCNC(C)=O)c2c1 (centres unmarked)	RBD, SARS-CoV-2, spike, with ACE2	RBD binding, TR-FRET	–	100 µM, together with: RBD-d2 5 nM	–	inhibition	20 to 30%
O=C(CCl)NNC(=O)c1cc2c(Cl)cccc2s1	Polyprotein P1234, nsP2 protease domain (Chikungunya virus, UniProt Q5XXP4)	protease activity, FRET	–	20 µM	–	inhibition	101%
O=C(N[C@@H]1CC[C@H]2C[C@@H]1CN2C(=O)c1ccc(-c2ccccc2)[nH]1)c1cc(O)cc(=O)[nH]1	rep main protease	enzyme activity, inhibitor	–	5 µM, run 2	–	inhibition	42.2%
C=C1C[C@@]23CC[C@H]4[C@@](C)(CCC[C@@]4(C)C(=O)O[C@@H]4O[C@H](CO)[C@@H](O)[C@H](O)[C@H]4O)[C@@H]2CC[C@]1(O[C@@H]1O[C@H](CO)[C@@H](O)[C@H](O)[C@H]1O)C3	Spike glycoprotein	binding, BLI	–	–	–	Kd	1.21 µM
Cn1cnc(Cn2c(=O)[nH]/c(=N\c3cc4cn(C)nc4cc3Cl)n(Cc3cc(F)c(F)cc3F)c2=O)n1	–	–	human, normal renal function	oral, 375 mg, single dose, geometric mean	–	mean residence time	69 h
O=C(c1cncc2[nH]cnc12)N1CC[C@]2(CCCCN(C(=O)[C@H]3C[C@@H]4C=CC[C@@H](C4)C3)C2)C1	rep main protease	enzyme activity, inhibitor	–	5 µM, mean of runs	–	inhibition	10.9%

Molecule	target or system	assay	test system	setting	scale	measurement	result
OC[C@H]1O[C@@H](Oc2c(O)cc(O)cc2/C=C/c2ccc(O)cc2)[C@H](O)[C@@H](O)[C@@H]1O	Spike glycoprotein	binding	–	–	–	Kd	66.2 µM
CN(C(=O)n1cnc(-c2ccc[n+]([O-])c2)c1)C1CCCCC1	strychnine-sensitive glycine receptor, rat	binding	–	50 µM, together with: [3H]strychnine	–	inhibition	3%
Cc1conc1C(=O)N1Cc2ccccc2C[C@H]1CNC(=O)c1cccc2[nH]ncc12	rep main protease	enzyme activity, inhibitor	–	5 µM, mean of runs	–	inhibition	10.3%
CN(CCN1CCC(OC(=O)Nc2ccccc2-c2ccccc2)CC1)C(=O)c1ccc(CN2CCC(C(N)=O)CC2)cc1	rat sodium channel site 2	radioligand binding	–	1 µM, together with: [3H]batrachotoxinin 10 nM	–	inhibition	12%
CCCCCCCCCCCCCCCC(=O)C(F)(F)P(=O)(O)O	plsY3	inhibitor	–	200 µM	–	inhibition	91%
O=C(NC[C@@H]1CC2(CCOCC2)CN1C(=O)c1ccc2c(c1)C(=O)NC2)c1cccnn1	rep main protease	enzyme activity, inhibitor	–	5 µM, mean of runs	–	inhibition	10.1%
O=C(Nc1cccnn1)N1CCN([C@@H]2CCOc3cc(C(F)(F)F)ccc32)CC1	Glutamate receptor ionotropic, NMDA 1 (Grin1, Rattus norvegicus, UniProt P35439)	binding	–	20 µM, glycine site, strychnine-insensitive	–	inhibition	-17%
O=C(Cc1ccccc1)Nc1nnc(CCSCCc2nnc(NC(=O)Cc3ccccc3)s2)s1	rep main protease	reporter gene (Gaussia luciferase), inhibitor	–	20 µM	–	inhibition	2.09%
CNC(=O)[C@@H](NC(=O)[C@H](CC(C)C)[C@H](O)C(=O)NO)C(C)(C)C	C2C12	–	–	10 µM, together with: TN venom	reference: venom alone	viability difference	7.59%
NC1=N[C@@]2(c3cc(NC(=O)c4ccc(F)cn4)ccc3F)COC[C@H]2CS1	rep main protease	reporter gene (Gaussia luciferase), inhibitor	–	20 µM	–	inhibition	-0.258%
O=C1CC(C(=O)N2CC3(CCC3)C[C@H]2CNC(=O)c2cncc3[nH]cnc23)CC(=O)N1	rep main protease	enzyme activity, inhibitor	–	5 µM, run 1	–	inhibition	10.9%
CN(C)C(=O)COC(=O)Cc1ccc(OC(=O)c2ccc(NC(=N)N)cc2)cc1	rep main protease	reporter gene (mKate2), inhibitor	–	20 µM	–	inhibition	-0.81%
Nc1ncnc2c([C@@H]3N[C@H](CO)[C@@H](O)[C@H]3O)c[nH]c12	Marburg virus	viral replication	HeLa, Musoke	400 µM	–	inhibition	99%
CCCCCCCCCCCCCCCC(=O)CP(=O)(O)O	plsY3	inhibitor	–	200 µM	–	inhibition	67%
CC(C)c1ccc(NC(=O)c2cccs2)c(-c2nc3ccccc3[nH]c2=O)c1	rep main protease	viral replication, Gluc reporter	SARS-CoV-2	20 µM	–	inhibition	-0.236%
CCCCCCCC(=O)CP(=O)(O)O	plsY3	inhibitor	–	200 µM	–	inhibition	0%
C=Cc1cc(O)cc2ccc3c(C)c(O)ccc3c12	rep main protease	reporter gene (Gaussia luciferase), inhibitor	–	20 µM	–	inhibition	-2.73%

For quick reference, copied from above:
Molecule	target or system	assay	test system	setting	scale	measurement	result
Nc1ncnc2c([C@@H]3N[C@H](CO)[C@@H](O)[C@H]3O)c[nH]c12	Marburg virus	viral replication	HeLa, Musoke	400 µM	–	inhibition	99%
CCCCCCCCCCCCCCCC(=O)CP(=O)(O)O	plsY3	inhibitor	–	200 µM	–	inhibition	67%
CC(C)c1ccc(NC(=O)c2cccs2)c(-c2nc3ccccc3[nH]c2=O)c1	rep main protease	viral replication, Gluc reporter	SARS-CoV-2	20 µM	–	inhibition	-0.236%
CCCCCCCC(=O)CP(=O)(O)O	plsY3	inhibitor	–	200 µM	–	inhibition	0%
C=Cc1cc(O)cc2ccc3c(C)c(O)ccc3c12	rep main protease	reporter gene (Gaussia luciferase), inhibitor	–	20 µM	–	inhibition	-2.73%
